Experimental data gathered from unrelated publications.
Each line is one published result; not all experiments were run side by side. ± marks the error that the study gave.

`CC(C)(O)c1ncc([S@](N)(=O)=NC(=O)Nc2c3c(cc4c2CCC4)CCC3)s1` has a dose-normalised AUC(0-tau) of 1220 ng·h/mL/mg (healthy human volunteers, plasma; oral, 50 mg twice daily, day 14, fed, enteric-coated tablet).
`CSCCN(CCSC)CCc1ccccn1` has a logK(H2) of 3.23 (potentiometric or spectrophotometric titration; water, 0.1 M KCl; 25 °C).
`CC(C)c1cnc(-c2cc(Cl)ccc2F)cc1Nc1ccncc1C(=O)NC(CO)CO` — result for “treatment-related serious adverse events”: 2.4% (measured: Pyrexia; solid tumour patients; oral, dose not given, phase I monotherapy).
With `COc1cc(OC)cc(C2=C3C(C)=C(I)C(/C=C/c4cccs4)=[N+]3[B-](F)(F)n3c(/C=C/c4cccs4)c(I)c(C)c32)c1` the Stokes shift was 219 cm⁻¹ (THF).
`C[C@H](NC(=O)COC(=O)[C@H](C)NC(=O)CO)C(=O)O` gave a depolymerization half-life of 36 s (water; pH 8, 65 °C).
`CC12CC(c3ccc(S(C)(=O)=O)cc3)C3=C4CCC(=O)C=C4CCC3C1CCC2(O)C(F)(F)C(F)(F)F` (stereo not drawn) has a tlast of 144 h (measured: unchanged compound; human, fasted, plasma; oral, 5 mg, median).
`CCCCCCCCCCCCCCCC(=O)N[C@@H](CCCCN)C(=O)N[C@@H](CCCCN)C(=O)N[C@@H](CO)C(=O)N[C@@H](CCCNC(=N)N)C(=O)N[C@@H](C)C(=O)N[C@@H](CC(C)C)C(=O)N[C@@H](Cc1ccccc1)C(N)=O` — result for “activated partial thromboplastin time”: 27.1 ± 1.8 s (cynomolgus monkey, female; 30 mg/kg, day 5).
With `CCC(C)n1c(C(=O)Nc2cnc(C(=O)NC)n(CC(C)C)c2=O)ncc(NC(=O)c2ncc(NC(=O)c3ccccc3)c(=O)n2Cc2ccc(OC)cc2)c1=O` (stereo not drawn) the decomposition was 0.7% (HPLC; Tween 20/ethanol/phosphate buffer (7:3:90); 24 h, pH 7.5).
`CC(C)(C)NCC(SS(=O)(=O)O)c1ccccc1` (stereo not drawn) has a Vss of 0.984 L/kg (Swiss Webster CFW mouse, female, plasma; intravenous, 15 mg/kg, from 0 h to infinity).
With `N=C(N)NCCC[C@@H]1NC(=O)[C@H](Cc2c[nH]c3ccccc23)NC(=O)[C@@H](CC2CCCCC2)NC(=O)[C@@H]2CCCN2C(=O)[C@@H](NC(=O)CCc2ccccc2)CCCNC1=O` the Vss was 0.00276 L (C57BL/6J mouse, plasma; intravenous, 1 mg/kg single dose).
With `CCCC(CCC)NC(=O)c1ccc(OC)c(O)c1` the peak area was 1.61e+07 cps (LC-MS extracted ion chromatogram; Sprague-Dawley rat, male and female, pooled plasma; oral, 200 mg/kg, 1 h).
`NCCC(=O)N1Cc2ccccc2-c2c(nnn2-c2nc(N)c3ncn(C4OC(CO)C(O)C4O)c3n2)-c2ccccc21` (mixture of isomers) — result for “fractional contribution τ3”: 0.4% (fluorescence lifetime; methanol).
For `CCCCCc1cn(CCCCCCCCCCCOP(=O)([O-])OCC[N+](C)(C)C)nn1`, the haemolysis was 0.5% (haemolysis; human; 100 µM, 1 h).
Under tolerability, `COc1cc(F)c(C(C)C)cc1C1=C(CN2C(=O)O[C@H](c3cc(C(F)(F)F)cc(C(F)(F)F)c3)[C@@H]2C)CC(C)(C)CC1` is recorded as “not toxic” (healthy male subjects; oral, 25 to 400 mg, single dose).
`COc1cc(OC)cc(C2=C3C(C)=C(I)C(/C=C/c4c[nH]c5ccc([N+](=O)[O-])cc45)=[N+]3[B-](F)(F)n3c(/C=C/c4c[nH]c5ccc([N+](=O)[O-])cc45)c(I)c(C)c32)c1` gave a Stokes shift of 623 cm⁻¹ (dichloromethane).
With `NC[C@@H](C(=O)Nc1ccc(-c2cn[nH]c2)cc1)c1ccccc1` the iris score was 0 (OECD 405 eye irritation; New Zealand White rabbit, eye; topical, 0.1%, 96 h (day 5), scale 0 to 2; direction not given).
`CC(=O)N[C@H](CCCCN)C(=O)N[C@H](CC(C)C)C(=O)N[C@H](CCCCN)C(=O)N[C@H](CO)C(=O)N[C@H](CC(C)C)C(=O)N[C@H](CC(C)C)C(=O)N[C@H](CCCCN)C(=O)N[C@@H](C(=O)N[C@H](CC(C)C)C(=O)N[C@H](CO)C(=O)N[C@H](CCCCN)C(=O)N[C@H](C)C(=O)N[C@H](CCCCN)C(=O)N[C@H](CCCCN)C(=O)N[C@H](CCCCN)C(=O)N[C@H](CCCCN)C(=O)N[C@H](CC(C)C)C(=O)N[C@H](CCCCN)C(=O)N[C@@H](C(=O)N[C@H](CC(C)C)C(=O)N[C@H](CC(C)C)C(=O)N[C@H](CCCCN)C(=O)N[C@H](C)C(=O)N[C@H](CC(C)C)C(=O)N[C@H](CO)C(=O)N[C@H](CCCCN)C(N)=O)[C@H](C)O)[C@H](C)O`: “mean residue molar ellipticity” 3550 deg cm2/dmol (circular dichroism; benign aqueous buffer; pH 7.0, 5 °C, at 222 nm; negative is more helical).
The Cmax of `CCCC[C@H](NC(C)=O)C(=O)N[C@H]1CC(=O)NCCCC[C@@H](C(=O)N[C@@H](C(=O)N2CCC[C@@H]2C(N)=O)C(C)C)NC(=O)[C@H](Cc2c[nH]c3ccccc23)NC(=O)[C@H](CCCN=C(N)N)NC(=O)[C@@H](Cc2ccc3ccccc3c2)NC(=O)[C@@H]2CCCN2C1=O` is reported as 3600 ± 300 ng/mL (Beagle dog, both sexes, plasma; subcutaneous, once daily, 2.25 mg/kg, day 28).
With `[11CH3]c1ccc2nc(C3CCC3)n(-c3ccc4[nH]ncc4c3)c2n1` the absorbed dose was 1 µSv/MBq (extrapolated from mouse biodistribution; human male, drain).
`C=CC(=O)Nc1cc(Nc2nccc(-n3ccc4nc(OC)ccc43)n2)c(OC)cc1N(C)CCN(C)C` has a concentration of 2700 ng/mL (BALB/c nude mouse, H1975 intracranial tumour, plasma; oral, 60 mg/kg, 1 h).
For `C#CCOc1ccc(/C=C2\SC(=O)N(CC(=O)NCc3ccccc3)C2=O)cc1`, “Kirkwood-Buff integral G1,3” read -259 cm³/mol (inverse Kirkwood-Buff integrals; binary solvent mixture; 298.15 K, mole fraction x1 0.85).
The pancreas uptake of `COc1cc2c(cc1OC)CN(CCCCn1ccc3cc(OCC[18F])ccc31)C2` is reported as 23.7 ± 2.35 %ID/g (male ICR mice; intravenous, 280 kBq, 15 min post-injection).
`O=C(CCc1ccc(CNC(C(=O)O)C2CCCCC2)cn1)NO` (stereo not drawn) gave an AUC(0-t) of 89.4 ng·h/mL (human, plasma; oral, 20 mg once daily, day 7, geometric mean).
With `C[N+](C)(C)CC(CC(=O)[O-])OC(=O)CCC(=O)Nc1ccn([C@@H]2O[C@H](CO)[C@@H](O)C2(F)F)c(=O)n1` (stereo partly drawn) the measured concentration was 3090 ± 124 ng/mL (THU-treated rat plasma; 3200.00 ng/mL, 2 months, -80 °C, frozen storage, high QC).
`O=C(NCCCN(CCCCN(CCCNC(=O)c1cccc(=O)n1[O-])C(=O)c1cccc(=O)n1[O-])C(=O)c1cccc(=O)n1[O-])c1cccc(=O)n1[O-].[89Zr+4]` gave an intact complex of 98.5 ± 2.2% (radio-TLC; PBS; 5 d, pH 7.4, 37 °C, with: K^+ 10-fold excess).
`CCc1cc(Nc2nc(-c3ccc(-n4cnc(C)c4)c(F)c3)cs2)c(C)cc1C`: “apparent terminal volume (Vz/F)” 552000 mL (human, both sexes, plasma; oral, 200 mg once daily, day 14, multiple dose, geometric mean).
For `COC(=O)c1ccc2c(c1)NC(=O)/C2=C(\Nc1ccc2c(c1)CCN2C(=O)CN1CCOCC1)c1ccccc1`, “Vss relative to total body water” read 7.5 (beagle dog, blood; intravenous).
With `CCCC[C@H](NC(=O)CNC(=O)CNC(=O)CN1CCN(CC(=O)O)CCN(CC(=O)O)CCN(CC(=O)O)CC1)C(=O)N[C@H]1CC(=O)NCCCC[C@@H](C(N)=O)NC(=O)[C@H](Cc2c[nH]c3ccccc23)NC(=O)[C@H](CCCNC(=N)N)NC(=O)[C@@H](Cc2ccccc2)NC(=O)[C@H](Cc2c[nH]cn2)NC1=O` [gallium-67 labelled] the tissue uptake was 25.1 ± 4.13 %ID/g (female C57 mice, B16/F1 melanoma, tumor; intravenous, 0.037 MBq, 4 h).
Under “mean arterial pressure”, `CCCC[C@H](NC(=O)[C@H](CC(C)C)N(C)C(=O)CNC(=O)[C@@H](NC(=O)[C@H](Cc1ccccc1)NC(=O)[C@H](CCCCN)NC(=O)[C@@H](N)CC(=O)O)C(C)C)C(N)=O` is recorded as “no effect” (anaesthetised minipig; sublingual, 5 mg/kg).
`CC[C@@H](C)N([11CH3])C(=O)c1nc(-c2ccc(Cl)cc2)c2ccccc2n1`: “time to 50% parent radioligand” 69.3 min (male rhesus monkey, plasma; intravenous, baseline).
For `C=CC(=O)Nc1cc(Nc2nccc(-c3cn(C4CC4)c4ccccc34)n2)c(OC)cc1NC`, “share of radioactivity” read 1.67% (LC-RAM/HRMS; human male, plasma; oral, 110 mg, 4 h; reference: total radioactivity).
`CC(C)C[C@@H]1NC(=O)[C@@H](Cc2ccccc2)NC(=O)[C@H](CCN)NC(=O)[C@@H](NC(=O)[C@H](CN)NC(=O)[C@@H](NC(=O)C(CCN)c2ccc(Cl)cc2)[C@@H](C)O)CCNC(=O)[C@H]([C@@H](C)O)NC(=O)[C@H](CCN)NC(=O)[C@H](CCN)NC1=O` (stereo partly drawn) gave a tissue concentration of 533000 ng/g (CD-1 mouse male, kidney; subcutaneous, 17.2 mg/kg, 4 h).
With `Cc1ccc(-c2ccc(-c3cc4sccc4o3)cn2)nc1` the fluorescence lifetime was 1.3 ns (TCSPC; MeCN).
With `Cn1c(=O)oc2ccc(-c3ccc(CC(C#N)NC(=O)C4CNCCCO4)c(F)c3)cc21` (stereo not drawn) the adverse events was < 5% (skin exfoliation; human volunteers; dose not given, parts A and B; reference: participants).
For `C=C(C)C(=O)Nc1ccc(-c2c(-c3ccc(Oc4nccc(C)n4)cc3)c3c(N)ncnc3n2C)cc1`, the Vd was 1.2 L/kg (beagle dog, plasma; intravenous).
With `C=CC(=C)CC[C@]1(C)[C@H](C)CC[C@@]23C(=C[C@H](OC(=O)C(C)C)C[C@@H]12)[C@@H](OC(C)=O)O[C@H]3OC(C)=O` the haemolysis was 5% (haemolysis; 500 µM).
Under “internal conversion yield”, `COCCOCCOCCOCCC(=O)NCc1cc(CNC(=O)CCOCCOCCOCCOC)cc(-c2cc3cc4nc(c(-c5ccc(CCC(=O)O)cc5)c5[nH]c(cc6nc(c(OC)c2[nH]3)CC6(C)C)cc5-c2cc(CNC(=O)CCOCCOCCOCCOC)cc(CNC(=O)CCOCCOCCOCCOC)c2)CC4(C)C)c1` is recorded as 0.41 (DMF; room temperature).
`Nc1nccc(-c2cn(C3CC3)c3ccccc23)n1` — result for “share of radioactivity”: 1.35% (LC-RAM/HRMS; human male, plasma; oral, 110 mg, 2 h; reference: total radioactivity).
With `CCOc1ccc2c(c1)C(C)=CC(C)(C)N2c1cc(OCC)cc2c1NC(C)(C)C=C2C` the residue concentration was 8.2 ± 3 ng/g (LC-MS/MS; piglets, liver; oral, 50 mg/kg feed of ethoxyquin, 42 days, after glucuronidase).
Under “intact complex in urine”, `O=C([O-])CN1CCN(CC(=O)[O-])CCN(C(CCC(=O)NCCCCCNC(=O)CCC(NC(=O)NC(CCC(=O)O)C(=O)O)C(=O)O)C(=O)O)CC1.[64Cu+2]` (stereo not drawn) is recorded as < 10% (radio-HPLC; mice, urine; 120 min).
With `CCCC[C@@H]1NC(=O)[C@@H](NC(=O)[C@H](CCC(=O)O)NC(=O)CNC(=O)CN2CCN(CC(=O)O)CCN(CC(=O)O)CCN(CC(=O)O)CC2)CCCCNC(=O)C[C@@H](C(N)=O)NC(=O)[C@H](C(C)C)NC(=O)[C@@H]2CCCN2C(=O)[C@H](CCCNC(=N)N)NC(=O)CNC(=O)[C@H](Cc2c[nH]c3ccccc23)NC(=O)[C@H](CCCNC(=N)N)NC(=O)[C@@H](Cc2ccccc2)NC(=O)[C@H](Cc2c[nH]cn2)NC(=O)[C@H](CCC(=O)O)NC1=O` [gallium-67 labelled] the tissue uptake was 0.41 ± 0.22 %ID/g (C57 mice with B16/F1 melanoma, spleen; intravenous, 0.037 MBq, 0.5 h).
The intact complex of `O=C([O-])CN1CCN(CC(=O)[O-])CCN(CC(=O)NCC2CCC(C(=O)NC(Cc3ccc4ccccc4c3)C(=O)NCCCCC(NC(=O)NC(CCC(=O)O)C(=O)O)C(=O)O)CC2)CCN(CC(=O)[O-])CC1.[44Sc+3]` (stereo not drawn) is reported as 95.9 ± 1.2% (transchelation stability; 24 h, 37 °C, with: EDTA 10 mM).

Some of these lines once more:
`CC(C)(O)c1ncc([S@](N)(=O)=NC(=O)Nc2c3c(cc4c2CCC4)CCC3)s1` has a dose-normalised AUC(0-tau) of 1220 ng·h/mL/mg (healthy human volunteers, plasma; oral, 50 mg twice daily, day 14, fed, enteric-coated tablet).
`CSCCN(CCSC)CCc1ccccn1` has a logK(H2) of 3.23 (potentiometric or spectrophotometric titration; water, 0.1 M KCl; 25 °C).
`CC(C)c1cnc(-c2cc(Cl)ccc2F)cc1Nc1ccncc1C(=O)NC(CO)CO` — result for “treatment-related serious adverse events”: 2.4% (measured: Pyrexia; solid tumour patients; oral, dose not given, phase I monotherapy).
With `COc1cc(OC)cc(C2=C3C(C)=C(I)C(/C=C/c4cccs4)=[N+]3[B-](F)(F)n3c(/C=C/c4cccs4)c(I)c(C)c32)c1` the Stokes shift was 219 cm⁻¹ (THF).
`C[C@H](NC(=O)COC(=O)[C@H](C)NC(=O)CO)C(=O)O` gave a depolymerization half-life of 36 s (water; pH 8, 65 °C).
